{"data": "Measurements pooled from the literature", "cell line": "Jurkat", "note": "Each line is one published result; not all experiments were run side by side."}
{"SMILES": "CCC(/C=C/C(=O)O)=C\\C(=O)C[C@H](C)C[C@@H](C)CC[C@H](O)[C@H](C)C(=O)CC(O)[C@H](C)[C@@H](C)OC(=O)C[C@@H](O)C1=C(C)C(=O)OC1=O (stereo partly shown)", "assay": "IL-2 production", "conditions": "20 µM, 24 h, together with: anti-CD3/anti-CD28 antibodies", "endpoint": "inhibition", "result": "98%"}
{"SMILES": "CC(C)C[C@@H](NC(=O)[C@@H](CC(C)C)NC(=O)[C@@H](CO)NC(=O)[C@@H](Cc1c[nH]cn1)NC(=O)[C@@H](CC(C)C)NC(=O)[C@@H](CO)NC(=O)[C@@H](CCCNC(=N)N)NC(=O)[C@@H](CO)NC(=O)[C@H](N)Cc1ccccc1)C(=O)NCC(=O)NCCCCCC(=O)N[C@H](CCCNC(=N)N)C(=O)N[C@H](CCCNC(=N)N)C(=O)N[C@H](CCCNC(=N)N)C(=O)N[C@H](CCCNC(=N)N)C(=O)N[C@H](CCCNC(=N)N)C(=O)N[C@H](CCCNC(=N)N)C(=O)N[C@H](CCCNC(=N)N)C(=O)N[C@H](CCCNC(=N)N)C(=O)NCC(=O)N[C@@H](CS)C(=O)O", "assay": "propidium iodide uptake", "conditions": "10 µM, 1 h, 37 °C", "endpoint": "dead cells", "result": "20 to 30%"}
{"SMILES": "C=C/C(=C/C(=O)C[C@H](C)C[C@@H](C)CC[C@H](O)[C@H](C)C(=O)/C=C/[C@H](C)[C@@H](C)O)CC", "assay": "IL-2 production", "conditions": "20 µM, 24 h, together with: anti-CD3/anti-CD28 antibodies", "endpoint": "inhibition", "result": "98%"}
{"SMILES": "Cc1ccc(C(C)C)cc1.[Cl-].[Cl-].[Ru+2].c1ccc(P(=Nc2cccc3cccnc23)(c2ccccc2)c2ccccc2)cc1", "assay": "flow cytometry", "conditions": "concentration not given", "endpoint": "cells with ΔΨm loss", "result": "40%"}
{"SMILES": "O=C1c2cccc3cccc(c23)C12NC(Cc1ccc(O)cc1)C([N+](=O)[O-])C2c1ccccc1 (stereo not shown)", "assay": "flow cytometry", "conditions": "IC50, 24 h", "endpoint": "active caspase-3 positive cells", "result": "> 85%"}
{"SMILES": "C1=CCCC=CCC1.F[P-](F)(F)(F)(F)F.[Pt+][c]1ccccc1P(=Nc1ccccc1)(c1ccccc1)c1ccccc1", "conditions": "concentration not given, 24 h, together with: z-VAD-fmk", "endpoint": "cells with decreased ΔΨm", "result": "32%"}
{"SMILES": "O=C1c2cccc3cccc(c23)C12NC(Cc1ccc(O)cc1)C([N+](=O)[O-])C2c1ccc(Br)cc1 (stereo not shown)", "assay": "cell growth or viability, MTT", "conditions": "48 h", "endpoint": "IC50", "result": "33.1 µM"}
{"SMILES": "Cc1ccc(C(C)C)cc1.O=C(N=P(c1ccccc1)(c1ccccc1)c1ccccc1)c1ccccn1.[Cl-].[Cl-].[Ru+2]", "assay": "flow cytometry", "conditions": "concentration not given, together with: z-VAD-fmk 50 µM", "endpoint": "cells with ΔΨm loss", "result": "30%"}
{"SMILES": "Cc1[nH][n+]([Pt-2]([Cl])([n+]2[nH]c(C)c(CSCc3ccccc3)c2C)[n+]2[nH]c(C)c(CSCc3ccccc3)c2C)c(C)c1CSCc1ccccc1.[Cl-]", "assay": "annexin V/7-AAD flow cytometry", "conditions": "1 µM", "endpoint": "apoptotic cells", "result": "23.6%"}
{"SMILES": "C(=C/c1ccccc1)/c1ccccc1", "assay": "apoptosis, measured: caspase-3 activity", "conditions": "24 h, lowest dose with significant induction", "scale": "baseline: vehicle", "endpoint": "lowest effective concentration", "result": "10 µM"}
